# Assay results from different studies.
# Each line is one published result; not all experiments were run side by side. ± marks the error that the study gave.
SMILES,assay,test system,setting,half-life
Cc1ccccc1-c1cc(N2CC[N+](C)([O-])CC2)ncc1N(C)C(=O)C(C)(C)c1cc(C(F)(F)F)cc(C(F)(F)F)c1,,"healthy volunteers, plasma","oral, dose not given",33.5 to 55.9 h
CCC(CC)[C@H](NC(C)=O)[C@@H]1[C@H](O)[C@@H](C(=O)OCCOC(=O)[C@@H](N)C(C)C)C[C@H]1NC(=N)N,,phosphate buffer,"pH 4.5, 37 °C, chemical stability",4.1 ± 0.567 h
Cc1cccc(Cn2ncc3c4cc(F)c(CN(C)C)cc4n(C)c3c2=O)n1,,"Dutch-belted rabbit, vitreous","intravitreal, 100 µM vitreous concentration",101 h
CC(C)[C@@H]1NC(=O)[C@H](CO)NC(=O)CNC(=O)CNC(=O)[C@H](CCCNC(=N)N)NC(=O)[C@@H]2CCCN2C(=O)[C@@H](N)CSSC[C@@H](C(=O)O)NC1=O,,plasma,,2.8 h
CCN(c1nc(N[C@H](CC(N)=O)C(=O)NC)nc(N2CCN(c3ccccc3C#N)CC2)n1)C1CCCCC1,,human plasma,,2.1 ± 0.3 h
CC(C)(C)c1nc(-c2ccc(NC(=O)c3cccs3)cc2Cl)no1,plasma stability,human plasma,"5 µM, 37 °C",> 2 h
NC(COc1cc(C(F)(F)F)cc(C(F)(F)F)c1)c1ccccc1 (stereo not drawn),"chemical stability, HPLC",,"pH 3, 37 °C",> 360 h
CC(C)(C)[C@H](NC(=O)C(F)F)C(=O)N1C[C@H]2[C@@H]([C@H]1C(=O)N[C@H](C#N)C[C@@H]1CCCNC1=O)C2(C)C,,mouse liver microsomes,microsomes 0.5 mg/mL,0.277 h
C[C@@H](NC(=O)[C@H](Cc1ccccc1)NC(=O)[C@@H](CCCNC(=N)N)NC(=O)[C@H](CCCN)NC(=O)[C@@H]1CNC(=O)c2cc3cc(c2)C(=O)N[C@H](Cc2ccc4ccccc4c2)C(=O)N[C@@H](CO)C(=O)N[C@@H](CC(N)=O)C(=O)N[C@H](Cc2ccc4ccccc4c2)C(=O)N[C@@H](c2ccccc2)C(=O)N[C@@H](CCCCNC3=O)C(=O)N[C@H](Cc2ccccc2)C(=O)N[C@@H](CCC(N)=O)C(=O)N[C@H](CCCNC(=N)N)C(=O)N[C@@H](CCCNC(=N)N)C(=O)N1)C(N)=O,,human serum,37 °C,> 24 h
"CCC(CC)O[C@@H]1C=C(C(=O)OC(OC(=O)[C@@H](N)C(C)C)C(C)C)C[C@H](NC(=N)N)[C@H]1NC(C)=O (single isomer, unassigned)",,acetate buffer with pancreatin,pH 4.5,stable
Nc1nc2c(ncn2COCCOC(=O)[C@@H](N)CO)c(=O)[nH]1,,DPBS,"pH 5.0, 34 °C, chemical hydrolysis",353 ± 199 h
CC(=O)N[C@@H](Cc1cnc[nH]1)C(=O)N[C@H](Cc1ccccc1)C(=O)N[C@@H](CCCNC(=N)N)C(=O)N[C@@H](Cc1c[nH]c2ccccc12)C(=O)NCCCOCCOCCOCCCNC(=O)COCC(=O)N[C@@H](Cc1cnc[nH]1)C(=O)N[C@H](Cc1ccccc1)C(=O)N[C@@H](CCCNC(=N)N)C(=O)N[C@@H](Cc1c[nH]c2ccccc12)C(N)=O,LC-MS/MS,mouse serum,"10 µM, 37 °C",6 h
CC(=O)N[C@H](CC(=O)O)C(=O)N[C@H](Cc1c[nH]c2ccccc12)C(=O)N[C@H](Cc1ccccc1)C(=O)N[C@H](CCCCN)C(=O)N[C@H](C)C(=O)N[C@H](Cc1ccccc1)C(=O)N[C@H](Cc1ccc(O)cc1)C(=O)N[C@H](CC(=O)O)C(=O)N[C@H](CCCCN)C(=O)N[C@@H](C(=O)N[C@H](C)C(=O)N[C@H](CCC(=O)O)C(=O)N[C@H](CCCCN)C(=O)N[C@H](Cc1ccccc1)C(=O)N[C@H](CCCCN)C(=O)N[C@H](CCC(=O)O)C(=O)N[C@H](C)C(=O)N[C@H](Cc1ccccc1)C(N)=O)C(C)C,,"statin-treated high-risk CHD patients, plasma","oral, 300 mg daily, day 13, median, detected subjects",0.45 h
C[C@H](NC(=O)COC(=O)[C@H](C)NC(=O)CO)C(=O)O,,water,"pH 2, 37 °C",308 h
CCCCCCCCN(CCC(=O)Nc1ccccc1)C(=O)c1ccccn1,,human serum,"0.5 mM, 37 °C",> 24 h
C[C@@H](O)[C@@H]1NC(=O)[C@@H]2CCCN2C(=O)[C@H](CC(N)=O)NC(=O)[C@@H](NC(=O)[C@H](Cc2ccc(O)cc2)NC(=O)CNC(=O)[C@@H](N)CC(N)=O)CCC(=O)NCCCC[C@@H](C(=O)N[C@@H](Cc2ccccc2)C(=O)N[C@@H](Cc2ccccc2)C(=O)N[C@@H](CCC(=O)O)C(=O)O)NC(=O)[C@H](Cc2ccc(O)cc2)NC1=O,,human plasma,37 °C,1.75 h
CCC(CSC[C@@H](NC(=O)CC[C@@H](N)C(=O)O)C(=O)NCC(=O)O)C(=O)c1ccc(OCC(=O)NCCCC[18F])c(Cl)c1Cl (stereo partly drawn),,,intact radiotracer in vivo,1 h
[2H]C([2H])(c1ccccc1)C([2H])([2H])N1C(=O)CC(=O)N(C([2H])([2H])C([2H])([2H])c2ccccc2)C1=O,,plasma,,0.823 h
CC[C@H](C)[C@H](NC(=O)[C@H](CC(N)=O)NC(=O)[C@H](CC(N)=O)NC(=O)[C@H](CCCNC(=N)N)NC(=O)[C@H](CC(N)=O)NC(=O)[C@H](CCCNC(=N)N)NC(=O)[C@H](CCCCN)NC(=O)[C@@H](NC(=O)[C@H](CC(N)=O)NC(=O)[C@H](CCSC)NC(=O)[C@H](CC(C)C)NC(=O)[C@H](Cc1c[nH]c2ccccc12)NC(=O)[C@@H]1CSCc2ccc(cc2)-c2ccc(cc2)CSC[C@H](NC(=O)[C@H](CCC(=O)O)NC(=O)[C@H](CC(=O)O)NC(=O)[C@H](CC(C)C)NC(=O)[C@H](Cc2ccc(O)cc2)NC(=O)[C@H](CCCCN)NC(=O)[C@H](CO)NC(=O)[C@H](Cc2ccc(O)cc2)NC(=O)[C@H](CC(=O)O)NC(=O)[C@H](CO)NC(=O)[C@@H](NC(=O)[C@H](Cc2ccccc2)NC(=O)[C@@H](NC(=O)CNC(=O)[C@H](CCC(N)=O)NC(=O)[C@@H](CO)NC(=O)[C@@H](N)Cc2c[nH]cn2)[C@@H](C)O)[C@@H](C)O)C(=O)N[C@@H](C)C(=O)N[C@@H](C)C(=O)N[C@@H](CCCCN)C(=O)N[C@@H](CCC(=O)O)C(=O)N[C@@H](Cc2ccccc2)C(=O)N[C@@H]([C@@H](C)CC)C(=O)N1)[C@@H](C)O)C(=O)N[C@@H](C)C(N)=O,,mouse serum,,~13 h
C=CC(=O)Nc1cccc(Cn2ncc3cnc(Nc4cnn(CCOC)c4)nc32)c1,,human whole blood,5 µM,3.2 h
COc1cc(C)c(Cc2ccc(O)cc2)cc1[C@@H]1S[C@H](CO)[C@@H](O)[C@H](O)[C@H]1O,,"Japanese T2DM patients, plasma","2.5 mg luseogliflozin, day 1, once daily",20.2 ± 4.39 h
CC[C@H](C)[C@H](NC(=O)CNC(=O)CNC(=O)c1ccc2c(c1)C(=O)OC21c2ccc(O)cc2Oc2cc(O)ccc21)C(=O)N[C@@H](Cc1ccc(O)cc1)C(=O)N[C@@H](C)C(=O)N(C)CC(=O)N1CCC[C@H]1C(=O)N(C)[C@@H](Cc1ccccc1)C(=O)N[C@@H](CCCCN)C(=O)N[C@@H](CCCCN)C(=O)N[C@@H](CCCCN)C(=O)N[C@@H](C)C(N)=O,CE-LIF,Baf/BCR-ABL cell cytosolic lysate,"1 µM, pH 7.4, 37 °C",0.812 h
O=C(Nc1ccc(-c2noc(C3CC3)n2)c(Cl)c1)c1cccs1,chemical stability,buffer,"5 µM, pH 2.0, 37 °C",0.254 ± 0.0867 h
CC(C)[C@H](NC(=O)CNC(=O)[C@H](CCC(N)=O)NC(=O)[C@H](C)N)C(=O)O,,"healthy volunteers, LPS endotoxaemia, plasma","intravenous, 15 mg/kg/h, 2 h infusion, geometric mean, together with: LPS 2 ng/kg",0.15 h
C[C@H](N)C(=O)OCCOCn1cnc2c(=O)[nH]c(N)nc21,,DPBS,"pH 5.0, 34 °C, chemical hydrolysis",273 ± 148 h
O=[N][Fe]1([N]=O)[S](CCO)[Fe]([N]=O)([N]=O)[S]1CCO,degradation,50 mM phosphate buffer,"pH 7.4, 37 °C",15.5 ± 0.6 h
CC[C@H](NC(=O)[C@H](CC(C)C)NC(=O)NCc1ccccc1)C(=O)C(=O)NCc1cccc(Cl)c1OC,loss of calpain inhibitory activity,PBS,"200 nM, room temperature, epimerisation",~0.25 h
NS(=O)(=O)c1ccc(NC(=O)NN[C@@H]2O[C@H](CO)[C@@H](O)[C@H](O)[C@@H]2O)cc1,,mouse liver microsomes,1 µM,20.6 h
Cn1cc(C(N)=O)c(NC2C3CC4CC2CC(OS(=O)(=O)O)(C4)C3)c2ccnc1-2 (stereo not drawn),,"Japanese adults, mild hepatic impairment, plasma","oral, 150 mg single dose",9.94 h
Cc1cccc(C)c1OCC(=O)N[C@@H](Cc1ccccc1)[C@H](C[C@H](Cc1ccccc1)NC(=O)[C@H](C(C)C)N1CCCNC1=O)OC(=O)[C@@H](N)CC(C)C,,DPBS,"50 µM, pH 7.4, 37 °C",15.4 ± 0.3 h

# Some of these lines once more:
SMILES,assay,test system,setting,half-life
CC(C)(C)[C@H](NC(=O)C(F)F)C(=O)N1C[C@H]2[C@@H]([C@H]1C(=O)N[C@H](C#N)C[C@@H]1CCCNC1=O)C2(C)C,,mouse liver microsomes,microsomes 0.5 mg/mL,0.277 h
C[C@@H](NC(=O)[C@H](Cc1ccccc1)NC(=O)[C@@H](CCCNC(=N)N)NC(=O)[C@H](CCCN)NC(=O)[C@@H]1CNC(=O)c2cc3cc(c2)C(=O)N[C@H](Cc2ccc4ccccc4c2)C(=O)N[C@@H](CO)C(=O)N[C@@H](CC(N)=O)C(=O)N[C@H](Cc2ccc4ccccc4c2)C(=O)N[C@@H](c2ccccc2)C(=O)N[C@@H](CCCCNC3=O)C(=O)N[C@H](Cc2ccccc2)C(=O)N[C@@H](CCC(N)=O)C(=O)N[C@H](CCCNC(=N)N)C(=O)N[C@@H](CCCNC(=N)N)C(=O)N1)C(N)=O,,human serum,37 °C,> 24 h
